Results from different studies.
Protocols differ between the studies behind these lines. Numbers after ± are the reported error.
Cell line: MCF7

| Structure (SMILES) | test | setting | how to read | measurement | result |
| --- | --- | --- | --- | --- | --- |
| CC(=C(c1ccc(Cl)cc1)c1ccc(OCCCN(C)C)cc1)c1ccc(Cl)cc1 | cell growth or viability | 10 µM |  | inhibition | 65.7% |
| O=C1c2c(O)cc(O)cc2-c2c(-c3ccc(O)cc3)oc3cc(O)cc1c23 | label-free MS proteomics |  | reference: tanespimycin | unique downregulated proteins | 70% |
| N=C(N)NCCC[C@H](NC(=O)[C@H](Cc1c[nH]c2ccccc12)NC(=O)[C@H](CCC(N)=O)NC(=O)[C@H](Cc1c[nH]c2ccccc12)NC(=O)[C@H](CCCNC(=N)N)NC(=O)[C@H](Cc1c[nH]c2ccccc12)NC(=O)[C@H](CCC(N)=O)NC(=O)[C@H](Cc1c[nH]c2ccccc12)NC(=O)[C@@H](N)CCCNC(=N)N)C(N)=O |  |  | reference: MCF-12 IC50 over MCF7 IC50 | selectivity ratio | > 1.7 |
| CC(Cc1ccc(Cl)cc1)=C(c1ccc(Cl)cc1)c1ccc(OCCN2CCCC2)cc1 | cell growth or viability | 10 µM |  | inhibition | 69% |
| COc1ccc(-c2nnc(-c3cc(-c4ccccc4)n(-c4ccc(S(N)(=O)=O)cc4)n3)o2)cc1 | real-time PCR, item: p53 | concentration not given | reference: untreated cells | mRNA level | 5.57 fold |
| C[n+]1c(/C=C/c2ccc(N(c3ccccc3)c3ccccc3)cc2)cc(/C=C2\Sc3ccccc3N2CCCN2CCCC2)c2ccccc21 | Western blot | concentration not given, 36 h |  | hTERT protein level | decreased |
| CN(C)c1cccc2c(S(=O)(=O)NCCCCCC(=O)NO)cccc12 | cell cycle, propidium iodide flow cytometry | 1 µM |  | cells in S phase | 12.9% |
| N=C(N)NCCC[C@@H]1NC(=O)[C@H](CCCCN)NC(=O)[C@@H](Cc2ccc(O)cc2)NC(=O)[C@H](CC(=O)O)NC(=O)CNC1=O | MTT | 48 h |  | TGI | > 100000 nM |
| NS(=O)(=O)c1ccc(/N=N/c2ccc(O)c(/C=N/c3cc([N+](=O)[O-])ccc3O)c2)cc1 | MTT | 48 h | reference: MCF10A IC50 over MCF7 IC50 | selectivity index | 1.49 |
| CN1CCC2(CC1)C/C(=N\NC(=O)Nc1ccccc1)c1ccccc1O2 | annexin V-FITC/PI | concentration not given, 24 h, Total apoptosis |  | apoptotic cells | 36.2% |
| COc1cc2c(=O)c(-c3ccc4c(c3)OCO4)coc2c2c1OC(C)(C)C=C2 | annexin V/PI flow cytometry | 2.5 µM, 48 h |  | apoptotic cells | 15.9% |
| C[C@]12CC[C@@H]3c4ccc(OCC(=O)N[C@@H](CCCCNC(=O)CN5CCN(CC(=O)[O-])CCN(CC(=O)[O-])CCN(CC(=O)[O-])CC5)C(=O)O)cc4CC[C@H]3[C@@H]1CCC2=O.[Lu+3] [lutetium-177 labelled] | saturation binding | 60 min, room temperature |  | Kd | 14.4 ± 3.3 nM |
| CN1CCN(c2ccc(C(=O)/C=C/Nc3ccc(S(N)(=O)=O)cc3)cc2)CC1 | annexin V/PI | concentration not given |  | late apoptotic cells | 26.4% |
| NS(=O)(=O)c1ccc(/N=N/c2ccc(O)c(/C=N/c3ccccn3)c2)cc1 | MTT | 72 h | reference: MCF10A IC50 over MCF7 IC50 | selectivity index | 11.5 |
| CCS(=O)(=O)Oc1cc(/C=N/NC(=O)c2nc3ccccc3s2)ccc1OC |  | concentration not given, 24 h |  | G2/M phase cells | 18.3% |
| CC(=NNC(=S)NN=C(C(=NO)c1ccccc1)c1ccccc1)c1ccccc1 | Western blot, item: Bcl-2 | IC50 concentration, 24 h | reference: untreated | relative protein level | 0.72 ± 0.07 |
| COc1ccc(NC(=O)CCc2nc3cc(Cl)ccc3[nH]c2=O)cc1 | annexin V-FITC | concentration not given |  | necrotic cells | 12.7% |
| COc1cc(OC)cc(C(O)c2c[nH]c3ncc(C(F)(F)F)cc23)c1 (stereo not drawn) | cell growth or viability | 10 µM, 72 h |  | inhibition | 33% |
